Assay results pooled from the literature.
Protocols differ between the studies behind these lines.
CTSL: Procathepsin L (CTSL, Homo sapiens, UniProt P07711)
Chain of UniProt P07711 (whole entry, looked up): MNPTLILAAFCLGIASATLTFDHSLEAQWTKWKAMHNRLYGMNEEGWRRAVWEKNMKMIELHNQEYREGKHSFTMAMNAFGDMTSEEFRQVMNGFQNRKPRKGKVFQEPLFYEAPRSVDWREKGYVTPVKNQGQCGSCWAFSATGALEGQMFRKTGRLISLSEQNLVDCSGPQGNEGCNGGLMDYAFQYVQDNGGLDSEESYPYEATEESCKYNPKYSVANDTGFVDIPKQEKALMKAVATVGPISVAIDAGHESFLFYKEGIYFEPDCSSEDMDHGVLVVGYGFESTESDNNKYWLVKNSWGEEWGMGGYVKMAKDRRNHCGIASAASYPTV
Chain of UniProt Q70EK9 (whole entry, looked up): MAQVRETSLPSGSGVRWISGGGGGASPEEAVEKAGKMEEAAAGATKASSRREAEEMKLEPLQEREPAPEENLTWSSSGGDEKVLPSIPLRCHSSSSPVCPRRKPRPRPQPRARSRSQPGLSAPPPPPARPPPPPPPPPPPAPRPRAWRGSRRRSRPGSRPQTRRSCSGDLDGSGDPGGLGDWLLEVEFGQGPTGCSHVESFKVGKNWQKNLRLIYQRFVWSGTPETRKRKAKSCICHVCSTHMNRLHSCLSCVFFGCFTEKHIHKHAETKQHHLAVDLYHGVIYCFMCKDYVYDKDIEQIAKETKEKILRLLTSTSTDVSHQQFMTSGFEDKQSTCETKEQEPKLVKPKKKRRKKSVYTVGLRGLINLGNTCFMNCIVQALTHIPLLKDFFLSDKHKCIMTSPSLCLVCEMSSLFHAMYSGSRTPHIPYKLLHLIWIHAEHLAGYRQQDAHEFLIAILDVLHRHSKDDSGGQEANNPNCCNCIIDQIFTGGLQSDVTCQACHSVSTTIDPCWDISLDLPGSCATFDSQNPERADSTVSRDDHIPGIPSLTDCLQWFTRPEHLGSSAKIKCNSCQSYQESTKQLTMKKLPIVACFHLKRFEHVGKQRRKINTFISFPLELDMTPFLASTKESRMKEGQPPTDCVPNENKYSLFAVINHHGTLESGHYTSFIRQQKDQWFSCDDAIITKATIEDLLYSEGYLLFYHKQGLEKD
Chain of UniProt P57078 (whole entry, looked up): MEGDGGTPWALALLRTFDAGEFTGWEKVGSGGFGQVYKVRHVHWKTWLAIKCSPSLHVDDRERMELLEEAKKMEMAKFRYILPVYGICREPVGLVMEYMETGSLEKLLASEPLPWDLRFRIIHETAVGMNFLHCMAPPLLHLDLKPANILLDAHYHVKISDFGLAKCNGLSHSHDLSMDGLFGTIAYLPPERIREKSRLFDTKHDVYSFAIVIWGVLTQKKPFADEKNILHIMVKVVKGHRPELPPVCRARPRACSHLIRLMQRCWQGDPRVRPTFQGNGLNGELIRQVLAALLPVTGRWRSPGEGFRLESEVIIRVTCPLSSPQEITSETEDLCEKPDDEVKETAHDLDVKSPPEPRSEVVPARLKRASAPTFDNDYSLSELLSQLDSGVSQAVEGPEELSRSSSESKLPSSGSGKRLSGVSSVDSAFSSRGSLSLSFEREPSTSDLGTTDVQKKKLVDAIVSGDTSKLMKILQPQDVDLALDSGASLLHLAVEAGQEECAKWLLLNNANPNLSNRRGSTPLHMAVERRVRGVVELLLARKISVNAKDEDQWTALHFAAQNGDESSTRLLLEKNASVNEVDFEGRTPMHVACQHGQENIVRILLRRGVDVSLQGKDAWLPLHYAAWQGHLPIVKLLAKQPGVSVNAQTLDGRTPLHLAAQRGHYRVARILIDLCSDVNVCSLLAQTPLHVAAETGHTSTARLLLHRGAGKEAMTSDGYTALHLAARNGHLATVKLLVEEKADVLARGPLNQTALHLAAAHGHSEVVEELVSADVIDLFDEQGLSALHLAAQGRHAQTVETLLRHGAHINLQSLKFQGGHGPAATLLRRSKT
Chain of UniProt Q9H8M2 (whole entry, unmodified, looked up): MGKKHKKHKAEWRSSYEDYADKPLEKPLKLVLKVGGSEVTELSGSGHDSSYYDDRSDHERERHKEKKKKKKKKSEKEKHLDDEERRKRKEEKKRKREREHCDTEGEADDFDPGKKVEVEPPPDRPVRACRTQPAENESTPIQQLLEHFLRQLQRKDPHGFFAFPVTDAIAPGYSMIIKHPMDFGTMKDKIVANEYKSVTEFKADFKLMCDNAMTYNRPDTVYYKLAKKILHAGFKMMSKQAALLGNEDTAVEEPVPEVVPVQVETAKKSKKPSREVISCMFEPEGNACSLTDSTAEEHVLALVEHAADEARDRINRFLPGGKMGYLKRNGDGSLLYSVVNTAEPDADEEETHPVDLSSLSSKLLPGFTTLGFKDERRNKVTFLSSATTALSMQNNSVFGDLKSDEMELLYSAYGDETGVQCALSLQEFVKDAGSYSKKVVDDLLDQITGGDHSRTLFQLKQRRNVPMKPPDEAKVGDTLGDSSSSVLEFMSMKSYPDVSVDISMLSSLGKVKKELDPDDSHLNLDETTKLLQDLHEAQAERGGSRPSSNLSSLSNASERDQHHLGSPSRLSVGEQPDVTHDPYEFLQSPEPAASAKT
Chain of UniProt Q15303 (whole entry, looked up): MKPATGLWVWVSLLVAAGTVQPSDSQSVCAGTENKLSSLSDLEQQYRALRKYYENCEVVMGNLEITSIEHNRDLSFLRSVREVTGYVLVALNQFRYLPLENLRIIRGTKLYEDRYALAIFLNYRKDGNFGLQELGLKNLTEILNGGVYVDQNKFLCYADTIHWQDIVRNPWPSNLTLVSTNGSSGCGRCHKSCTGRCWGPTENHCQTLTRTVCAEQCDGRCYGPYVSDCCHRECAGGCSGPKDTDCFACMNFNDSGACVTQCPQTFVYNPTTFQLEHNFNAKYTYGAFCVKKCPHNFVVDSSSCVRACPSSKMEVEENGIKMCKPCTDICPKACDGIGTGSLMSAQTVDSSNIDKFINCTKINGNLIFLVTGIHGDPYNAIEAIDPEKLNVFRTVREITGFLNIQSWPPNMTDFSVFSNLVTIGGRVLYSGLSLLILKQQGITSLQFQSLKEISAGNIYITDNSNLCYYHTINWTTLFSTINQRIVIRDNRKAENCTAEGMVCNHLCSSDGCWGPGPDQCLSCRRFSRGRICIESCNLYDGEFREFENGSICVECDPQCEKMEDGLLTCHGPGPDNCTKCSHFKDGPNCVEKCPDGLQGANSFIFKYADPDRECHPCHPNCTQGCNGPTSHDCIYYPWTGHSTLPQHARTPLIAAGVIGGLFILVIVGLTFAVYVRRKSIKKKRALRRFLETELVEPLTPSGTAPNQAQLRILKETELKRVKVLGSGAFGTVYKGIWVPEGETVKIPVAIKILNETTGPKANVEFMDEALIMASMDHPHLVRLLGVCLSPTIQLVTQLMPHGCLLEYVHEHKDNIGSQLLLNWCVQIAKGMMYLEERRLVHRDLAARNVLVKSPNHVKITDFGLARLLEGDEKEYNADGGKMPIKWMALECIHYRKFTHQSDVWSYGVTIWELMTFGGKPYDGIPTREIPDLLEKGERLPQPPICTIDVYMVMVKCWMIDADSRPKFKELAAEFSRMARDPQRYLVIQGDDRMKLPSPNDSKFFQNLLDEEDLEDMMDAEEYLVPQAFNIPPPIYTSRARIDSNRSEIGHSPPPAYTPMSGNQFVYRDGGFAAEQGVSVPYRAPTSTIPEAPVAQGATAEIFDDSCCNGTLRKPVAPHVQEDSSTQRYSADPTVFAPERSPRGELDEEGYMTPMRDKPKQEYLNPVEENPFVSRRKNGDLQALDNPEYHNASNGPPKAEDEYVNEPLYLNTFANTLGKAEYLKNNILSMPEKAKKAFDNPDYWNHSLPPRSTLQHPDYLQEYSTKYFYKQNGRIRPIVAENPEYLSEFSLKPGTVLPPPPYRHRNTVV
Chain of UniProt O43293 (whole entry, looked up): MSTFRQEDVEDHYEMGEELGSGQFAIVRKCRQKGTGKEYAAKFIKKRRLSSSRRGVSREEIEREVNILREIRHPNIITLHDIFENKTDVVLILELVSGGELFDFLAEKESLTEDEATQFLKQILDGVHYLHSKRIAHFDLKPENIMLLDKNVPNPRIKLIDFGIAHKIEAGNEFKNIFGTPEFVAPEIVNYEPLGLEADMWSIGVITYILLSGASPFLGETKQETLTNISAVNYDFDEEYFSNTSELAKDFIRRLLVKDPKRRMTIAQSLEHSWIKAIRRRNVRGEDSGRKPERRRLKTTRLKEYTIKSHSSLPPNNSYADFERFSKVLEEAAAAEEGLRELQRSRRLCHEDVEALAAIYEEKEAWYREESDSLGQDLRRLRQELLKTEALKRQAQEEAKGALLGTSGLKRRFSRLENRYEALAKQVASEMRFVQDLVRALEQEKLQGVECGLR
Chain of UniProt P35462 (whole entry, looked up): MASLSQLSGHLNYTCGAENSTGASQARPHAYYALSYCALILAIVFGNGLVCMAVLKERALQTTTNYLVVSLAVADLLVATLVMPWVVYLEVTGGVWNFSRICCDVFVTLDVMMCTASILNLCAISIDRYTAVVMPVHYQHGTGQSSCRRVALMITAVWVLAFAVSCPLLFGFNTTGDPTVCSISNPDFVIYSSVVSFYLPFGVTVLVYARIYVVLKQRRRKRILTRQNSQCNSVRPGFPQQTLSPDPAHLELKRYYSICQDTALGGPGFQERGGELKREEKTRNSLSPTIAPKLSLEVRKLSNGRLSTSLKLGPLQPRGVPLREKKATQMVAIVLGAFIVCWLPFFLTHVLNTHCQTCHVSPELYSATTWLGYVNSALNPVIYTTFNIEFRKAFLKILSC
Chain of UniProt P61075 (whole entry, looked up): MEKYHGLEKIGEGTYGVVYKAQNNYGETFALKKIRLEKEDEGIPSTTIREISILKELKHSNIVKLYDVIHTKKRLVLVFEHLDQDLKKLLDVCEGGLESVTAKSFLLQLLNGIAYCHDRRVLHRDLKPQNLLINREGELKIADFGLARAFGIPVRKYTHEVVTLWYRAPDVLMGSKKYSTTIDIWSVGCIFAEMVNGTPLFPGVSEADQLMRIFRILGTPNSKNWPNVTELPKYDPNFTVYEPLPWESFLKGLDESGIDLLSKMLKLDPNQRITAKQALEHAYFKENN

FC(F)(F)Oc1cccc(-c2cnc3ccc(-c4ccncc4)nn23)c1 has a remaining binding of 100% (ERBB4 (Homo sapiens, UniProt Q15303); cell-free assay, competition with immobilised ligand; 5 µM).
With COc1cc(-c2cc(C(C)=O)n3ccccc23)cc(OC)c1C(=O)N(C)C the ΔTm was 14 °C (BRD9 (Homo sapiens, UniProt Q9H8M2); thermal stability, DSF; 200 µM).
For CN(Cc1ccc(C(C)(C)C)cc1)Cc1cccc2ccccc12, the inhibition zone was ≥ 55 mm (Trichophyton rubrum; microbial growth, disc diffusion; ATCC28188; 0.008 µg/mL, 6 days).
C=CC(=O)N1CCC(COCC(=O)N2CCN(c3nc(-c4cnc(N)nc4C(F)F)nc(N4CCOC[C@@H]4C)n3)CC2)CC1 gave a remaining binding of 96% (COQ8A (Homo sapiens, UniProt Q8NI60); binding, competition with immobilised ligand; 1 µM).
For CC1OC(OCC2OC(OCCc3ccc(O)c(O)c3)C(O)C(O)C2OC(=O)/C=C/c2ccc(O)c(O)c2)C(O)C(O)C1O (stereo not drawn), the remaining activity was 76.8% (CTSL; enzyme activity, inhibitor; 100 µM).
With CNc1ncc2c(/C=C/C(=O)N3CCC(OC)CC3)nn(Cc3cccc(C(F)(F)F)c3)c2n1 the remaining activity was 85% (MINK1 (Homo sapiens, UniProt Q8N4C8); enzyme activity, inhibitor, radiometric; 1 µM).
The inhibition of CN(O)N=Nc1ccc(S(=O)(=O)Nc2nccs2)cc1 is reported as 92.2% (ABTS scavenging; 240 µg/mL).
Cc1cc([C@@H](C)Nc2ccccc2C(=O)O)c2nc(N3CCC(F)(F)CC3)c(C#N)c(=O)n2c1 has a remaining binding of 97% (FGFR3 (Homo sapiens, UniProt P22607); binding, competition with immobilised ligand; 1 µM).
With Cc1ccc(N(O)N=Nc2ccc(S(=O)(=O)Nc3cc(C)on3)cc2)cc1 the inhibition was 46.8% (ABTS scavenging; 240 µg/mL).
For NC/C(=C\F)COc1cccc(Cn2c(=S)[nH]c(=O)c3[nH]cnc32)c1, the inhibition was 73.9% (Myeloperoxidase (MPO, Homo sapiens, UniProt P05164); enzyme activity, inhibitor, fluorescence; 37 nM).
CN(C)c1nccc(-c2cnn3ncccc23)n1 gave a remaining signal of 100% (CRK2 (Plasmodium falciparum, UniProt P61075); cell-free assay; 1 µM).
OC[C@@H](O)[C@H](O)[C@@H](O)CO has an inhibition of 24% (USP51 (Homo sapiens, UniProt Q70EK9); enzyme activity, inhibitor; 5 µM).
With COc1cc(-c2cncc3c2CN(C)Cc2cc(N4CCNCC4)ccc2-3)cc(OC)c1OC the remaining activity was 96% (EPHA8 (Homo sapiens, UniProt P29322); enzyme activity, inhibitor; 1 µM).
For Cc1coc2c1C(=O)C(=O)c1c-2ccc2c(C)cccc12, the remaining activity was 96.1% (CTSL; enzyme activity, inhibitor; 100 µM).
The remaining signal of Nc1ncnc2occ(-c3ccc(NC(=O)Nc4cc(C(F)(F)F)ccc4F)cc3)c12 is reported as 9.8% (RIPK4 (Homo sapiens, UniProt P57078); cell-free assay, inhibitor; 20 µM).
For O=C1NCCc2[nH]cc(S(=O)(=O)Nc3ccc(C(F)(F)F)c(Cl)c3)c21, the Emax was 106% (DRD3 (Homo sapiens, UniProt P35462); β-arrestin recruitment, agonist; 90 min).
CN(Cc1ccc(C2(C(F)(F)F)CC2)cc1)Cc1cccc2ccccc12 gave an inhibition zone of 9.5 mm (Trichophyton rubrum; microbial growth, disc diffusion; ATCC28188; 0.0005 µg/mL, 6 days).
CC1COC2=C1C(=O)C(=O)c1c2ccc2c1CCCC2(C)C (stereo not drawn) gave a remaining activity of 11.6% (CTSL; enzyme activity, inhibitor; 100 µM).
For C1=C/COCc2cc(ccc2OCCN2CCCC2)Nc2nccc(n2)-c2cccc(c2)COC/1, the remaining binding was 61% (KIT (Homo sapiens, UniProt P10721, D816V); binding; 0.1 µM).
COc1cc2c(=O)c(-c3ccc(O)cc3)coc2cc1O gave a remaining activity of 66.8% (CTSL; enzyme activity, inhibitor; 100 µM).
With CCCCC(=O)Nc1ccc(-c2ccc3ncn(CCC)c(=O)c3c2)cn1 the remaining binding was 100% (DAPK3 (Homo sapiens, UniProt O43293); binding, competition with immobilised ligand; 0.5 µM).

Some of these lines once more:
For NC/C(=C\F)COc1cccc(Cn2c(=S)[nH]c(=O)c3[nH]cnc32)c1, the inhibition was 73.9% (Myeloperoxidase (MPO, Homo sapiens, UniProt P05164); enzyme activity, inhibitor, fluorescence; 37 nM).
CN(C)c1nccc(-c2cnn3ncccc23)n1 gave a remaining signal of 100% (CRK2 (Plasmodium falciparum, UniProt P61075); cell-free assay; 1 µM).
